Experimental data of several laboratories.
Each numbered part is a random draw from the data of one study; scales do not carry over between parts. Changes are numbered by the printed parent chain.

Series 1
Target: Interferon regulatory factor 7, full length, phosphomimetic (IRF7, Homo sapiens, UniProt Q92985, residues 1-503, S471D/S472D/S475D/S476D/S477D/S483D/S484D/S487D)
Method: protein-binding microarray
Form: double-stranded DNA, one strand shown
Sample: in vitro
Concentration: 2200 nM top
Setting: 60-bp whole probe
Added: salmon DNA 0.4 mg/ml
Relative to: random background probes
Direction: higher = stronger binding
Constant ends, left off below: GCCTAGCAC … GTCTTGATTCGCTTGACGCTGCTG
Construct (chain): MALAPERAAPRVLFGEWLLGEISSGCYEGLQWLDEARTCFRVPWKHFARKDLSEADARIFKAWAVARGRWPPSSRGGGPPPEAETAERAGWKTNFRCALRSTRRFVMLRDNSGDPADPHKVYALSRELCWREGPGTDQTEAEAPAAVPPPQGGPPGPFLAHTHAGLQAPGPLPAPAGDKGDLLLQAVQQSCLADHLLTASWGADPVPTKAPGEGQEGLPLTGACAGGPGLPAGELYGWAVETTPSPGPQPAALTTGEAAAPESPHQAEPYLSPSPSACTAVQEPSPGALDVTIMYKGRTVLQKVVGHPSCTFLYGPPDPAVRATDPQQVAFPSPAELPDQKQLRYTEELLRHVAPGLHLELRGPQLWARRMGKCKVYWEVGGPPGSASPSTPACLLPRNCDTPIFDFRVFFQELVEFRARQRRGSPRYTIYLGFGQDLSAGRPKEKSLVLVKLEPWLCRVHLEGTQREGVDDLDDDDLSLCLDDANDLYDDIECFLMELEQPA
`TTAGGTTTCGGTCTTGGTTAGTGCTAG`: “fitted relative affinity” 6.55 z-score.
`TCAGGTAGCCTTATCCCACTGTGCTAG` — result for “fitted relative affinity”: 0.45 z-score.
For `TTAGGACTGCGTTTCGGTTAGTGCTAG`, “fitted relative affinity” read 2.51 z-score.
For `ATTGCTTCCTCTTTCACTGGGTGCTAG`, “fitted relative affinity” read 2.54 z-score.
`TTAGGAATCCTACTGCTTTAGTGCTAG`: “fitted relative affinity” 0.16 z-score.
`GACGATATCGGGACCGGAGACGTGCTA`: “fitted relative affinity” -0.0118 z-score.
Under “fitted relative affinity”, `GACGATATCACTCTCGAGACGTGCTAG` is recorded as 0.808 z-score.
For `TTAGGTATTGGTCTCGGTTAGTGCTAG`, “fitted relative affinity” read 0.872 z-score.
`TTAGGTTTCTGTTTCGGTTAGTGCTAG` — result for “fitted relative affinity”: 9.37 z-score.
`GACGGTTTCCTGTCCCTGACGTGCTAG` — result for “fitted relative affinity”: 2.8 z-score.
`TTAGAACTCAGTCTCGATTAGTGCTAG` — result for “fitted relative affinity”: 0.0192 z-score.
For `CTCGTTTACATTTTCCAAATGTGCTAG`, “fitted relative affinity” read 3.66 z-score.
`TTAGGTCCCCTACTGCTTTAGTGCTAG`: “fitted relative affinity” 0.412 z-score.
`GACGAACTGGGGACTGGACACGTGCTA` — result for “fitted relative affinity”: -0.436 z-score.
`GACGGTTTCGACTTTCGAGACGTGCTA` — result for “fitted relative affinity”: 7.96 z-score.

Series 2
Target: Sal-like protein 4, full length isoform B (SALL4, Homo sapiens, UniProt Q9UJQ4-2, residues 1-616)
Method: universal PBM
Form: double-stranded DNA, one strand shown
Sample: in vitro
Concentration: not given
Setting: 8-mer, flanks averaged, mean of replicates
Direction: higher = stronger binding
`CGTCGCTC` has an E-score of -0.306.
For `GAGAGTGC`, the E-score was -0.0725.
With `TACCTTGA` the E-score was 0.0898.
For `CGAATACG`, the E-score was -0.0129.
The E-score of `CAGAGAAA` is reported as 0.0556.
The E-score of `ACTCCCGA` is reported as -0.176.
For `GCCATCGC`, the E-score was -0.192.
`GGCTGCAC` gave an E-score of -0.276.
`GTGGCGCA` gave an E-score of -0.0996.
For `GACTCCTC`, the E-score was -0.0752.
For `CCCTCTAG`, the E-score was -0.131.
`AAAGGTCT` gave an E-score of -0.00774.
`CTACTCCC` gave an E-score of -0.0759.
`AAGGACCC` has an E-score of -0.334.
With `ATAGATCC` the E-score was 0.0425.
For `AAAAGAAT`, the E-score was 0.233.
The E-score of `ACCAAGGC` is reported as -0.17.

Series 3
Target: Ras GTPase-activating protein-binding protein 1, full length (G3BP1, Homo sapiens, UniProt Q13283)
Chain of UniProt Q13283 (whole entry, looked up): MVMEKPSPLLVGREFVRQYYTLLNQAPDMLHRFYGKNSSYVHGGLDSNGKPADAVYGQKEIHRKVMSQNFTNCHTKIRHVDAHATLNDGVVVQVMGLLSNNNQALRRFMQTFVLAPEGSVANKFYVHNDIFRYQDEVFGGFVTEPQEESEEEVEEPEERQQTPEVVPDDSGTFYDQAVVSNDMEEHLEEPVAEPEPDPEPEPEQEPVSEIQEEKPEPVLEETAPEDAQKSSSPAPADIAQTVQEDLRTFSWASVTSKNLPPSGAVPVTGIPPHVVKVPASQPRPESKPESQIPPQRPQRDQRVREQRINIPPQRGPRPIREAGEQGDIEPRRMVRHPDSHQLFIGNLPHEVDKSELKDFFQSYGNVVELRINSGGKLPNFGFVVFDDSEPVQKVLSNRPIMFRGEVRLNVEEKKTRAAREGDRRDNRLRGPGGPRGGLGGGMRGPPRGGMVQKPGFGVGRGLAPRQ
Method: RNA Bind-n-Seq
Form: RNA
Sample: in vitro
Concentration: 200 nM
Setting: whole 134-nt RNA, ends assumed
Added: 150 mM KCl
Relative to: input library
Direction: higher = stronger binding
`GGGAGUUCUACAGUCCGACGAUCUCCUGUGCUACACAUCGUAUGUACCGAAUCGGGCCCCCCGGCCCCCCGGGGCCCCCCGGAAAGUAUUAUGUUACGCCGUUCGGAUCUGCAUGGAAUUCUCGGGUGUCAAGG` has a log2 enrichment of 0.0641.
`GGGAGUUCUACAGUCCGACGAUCUGGCCCUGGUGGCAUGCGGGGAGGAAGAGGGGGCCUCAUGGAUCGUGGUGGUCCCGGUGGAAUGUUCAGAGGUGGCCGUGGUGGAGACAGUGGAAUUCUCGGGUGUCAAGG` has a log2 enrichment of 0.707.
`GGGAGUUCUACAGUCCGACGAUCCAAGUCCUGUGCUACACAUCGUAUGUACCGAAUCGGGGCCGGGGCCGGGCCGGGGAAAGUAUUAUGUUACGCCGUUCGGAUCUGCACUUCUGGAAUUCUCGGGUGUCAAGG` gave a log2 enrichment of -0.00552.
For `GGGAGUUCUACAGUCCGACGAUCUUAGGGCCAAUCUUCGUCAAUAUGGUUUAGAGAAGUAUUACCUUGAUGUCCUGGUUUCAGAUGCAUCUAAACCUUCCUGGAGGAAGGGCAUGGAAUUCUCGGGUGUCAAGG`, the log2 enrichment was -0.818.
For `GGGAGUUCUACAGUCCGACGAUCUCUAUUCAUAAGAACCCCAACACAUCGGAGCCCCAACACCUGUUGGUGAUGAAGGGCGCCCCAGAAAGGAUCCUAGACCGUUGCAGCUCUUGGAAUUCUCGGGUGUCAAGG`, the log2 enrichment was -0.21.
For `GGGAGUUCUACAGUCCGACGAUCCACAGACAACACGCACCCACACAGACACAGAGGGAAGGGGUUGGGAUGAGGACAGGGUGCACAGCAGGGCGGGGUAGGACCCCAGCCCCUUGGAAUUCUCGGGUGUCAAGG`, the log2 enrichment was 1.67.
`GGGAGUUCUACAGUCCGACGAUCUAACUCUAGAGGAGGAUCUGAUGGAUAUGGCAGUGGACGUGGAUUUGGGGAUGGCUAUAAUGGGUAUGGAGGAGGACCUGGAGGUGGCAAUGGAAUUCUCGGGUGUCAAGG` has a log2 enrichment of 0.413.
With `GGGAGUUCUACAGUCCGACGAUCGUAGGAAGUAAAAACAAAUGGAAAUGCUUCGGAUAGUGGCAGGGGUGGGGGUUGCUAAGGAAAGGGUGGGAUGGGAGUGGGUAAAGAGUUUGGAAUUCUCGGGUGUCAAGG` the log2 enrichment was 1.18.
`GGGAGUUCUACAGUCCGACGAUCGCAGGAAGUAAAAACAAAUGGAAAUGCUUCGGAUAGUGGCAGGGGUGGGGGUUGCUAAGGAAAGGGUGGGAUGGGAGUGGGUAAAGACUUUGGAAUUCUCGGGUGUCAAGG` has a log2 enrichment of 1.66.
For `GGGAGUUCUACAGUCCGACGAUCUUUUAGAAAGAGAAGGGGAAGAAAAUGAAGCCUUACAUAAGAUGAUUGCAAACGAGCAAAAGACUUCUCUCCCAAAUUUGUUCCAGGAUAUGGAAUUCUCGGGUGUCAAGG`, the log2 enrichment was -1.28.

Series 4
Target: CCNA2, cyclin fold, Cln2 fusion (human)
Method: yeast growth competition, sequencing
Sample: yeast
Setting: strong parent motif
Relative to: not given
Direction: higher = stronger binding
Parent: WEE1 docking peptide (human); HKTFRKLRLFDTP
`GKTFRKLRLFDTP [H1G]`: “normalised enrichment score” 0.888.
Under “normalised enrichment score”, `HKGFRKLRLFDTP [T3G]` is recorded as 2.73.
Under “normalised enrichment score”, `HKTIRKLRLFDTP [F4I]` is recorded as 1.85.
`AKTFRKLRLFDTP [H1A]`: “normalised enrichment score” 0.902.
For `HKTFRKLRLRDTP [F10R]`, “normalised enrichment score” read 1.31.
`MKTFRKLRLFDTP [H1M]`: “normalised enrichment score” 0.63.
`TKTFRKLRLFDTP [H1T]` — result for “normalised enrichment score”: 1.64.
Under “normalised enrichment score”, `HKTFRKLRLFLTP [D11L]` is recorded as 1.98.
`HKTFRKLRLMDTP [F10M]` — result for “normalised enrichment score”: 1.54.
`HKTFRKLRLFVTP [D11V]` — result for “normalised enrichment score”: 1.13.
Under “normalised enrichment score”, `HKTFRKLRTFDTP [L9T]` is recorded as 0.113.
Under “normalised enrichment score”, `HKTFRKLMLFDTP [R8M]` is recorded as 1.39.
For `HKTFRKLRKFDTP [L9K]`, “normalised enrichment score” read 1.5.
Under “normalised enrichment score”, `HCTFRKLRLFDTP [K2C]` is recorded as 1.26.
`HKTFRKLRLFITP [D11I]`: “normalised enrichment score” 0.989.
For `HKTFRKLRLFRTP [D11R]`, “normalised enrichment score” read 0.989.

Further values, each from its own experiment
The fold induction of `PhoQ, residues 284 288 289 292 302 303 NSMLDC` is reported as 10.2 (PhoP, residues 12 14 15 18 19 SGWQI (Escherichia coli, UniProt P23836); Sort-seq, refers to: YFP reporter; E. coli; PhoQ-PhoP variant library, added: 10 µM Mg2+; relative to: high Mg2+ state, higher = stronger signaling).

Some of these lines once more (series 3):
`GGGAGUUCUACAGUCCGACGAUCUGGCCCUGGUGGCAUGCGGGGAGGAAGAGGGGGCCUCAUGGAUCGUGGUGGUCCCGGUGGAAUGUUCAGAGGUGGCCGUGGUGGAGACAGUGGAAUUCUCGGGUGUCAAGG` has a log2 enrichment of 0.707.
`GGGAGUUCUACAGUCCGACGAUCCAAGUCCUGUGCUACACAUCGUAUGUACCGAAUCGGGGCCGGGGCCGGGCCGGGGAAAGUAUUAUGUUACGCCGUUCGGAUCUGCACUUCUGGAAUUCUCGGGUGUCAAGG` gave a log2 enrichment of -0.00552.
For `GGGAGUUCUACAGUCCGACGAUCUUAGGGCCAAUCUUCGUCAAUAUGGUUUAGAGAAGUAUUACCUUGAUGUCCUGGUUUCAGAUGCAUCUAAACCUUCCUGGAGGAAGGGCAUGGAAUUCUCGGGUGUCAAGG`, the log2 enrichment was -0.818.
For `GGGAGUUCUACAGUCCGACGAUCUCUAUUCAUAAGAACCCCAACACAUCGGAGCCCCAACACCUGUUGGUGAUGAAGGGCGCCCCAGAAAGGAUCCUAGACCGUUGCAGCUCUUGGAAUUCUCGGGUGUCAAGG`, the log2 enrichment was -0.21.
